Measured values pooled from the literature.
Several values in a cell are separate wells, animals, samples, runs or records. Numbers after ± are the reported error.
AGER: Advanced glycosylation end product-specific receptor (AGER, Homo sapiens, UniProt Q15109)
UniProt Q15109, sequence (whole entry, looked up): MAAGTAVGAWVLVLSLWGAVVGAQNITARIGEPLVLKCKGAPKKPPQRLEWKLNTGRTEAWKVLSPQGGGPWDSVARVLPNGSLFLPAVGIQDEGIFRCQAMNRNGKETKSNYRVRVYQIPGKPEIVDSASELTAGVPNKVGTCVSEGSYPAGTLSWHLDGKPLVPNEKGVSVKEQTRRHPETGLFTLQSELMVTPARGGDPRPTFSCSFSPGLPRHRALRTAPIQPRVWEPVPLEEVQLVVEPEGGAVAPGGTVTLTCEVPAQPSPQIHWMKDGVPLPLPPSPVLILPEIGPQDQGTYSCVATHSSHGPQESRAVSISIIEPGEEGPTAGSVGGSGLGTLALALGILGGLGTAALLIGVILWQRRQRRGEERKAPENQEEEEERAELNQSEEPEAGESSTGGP
UniProt Q10QA5, sequence (whole entry, looked up): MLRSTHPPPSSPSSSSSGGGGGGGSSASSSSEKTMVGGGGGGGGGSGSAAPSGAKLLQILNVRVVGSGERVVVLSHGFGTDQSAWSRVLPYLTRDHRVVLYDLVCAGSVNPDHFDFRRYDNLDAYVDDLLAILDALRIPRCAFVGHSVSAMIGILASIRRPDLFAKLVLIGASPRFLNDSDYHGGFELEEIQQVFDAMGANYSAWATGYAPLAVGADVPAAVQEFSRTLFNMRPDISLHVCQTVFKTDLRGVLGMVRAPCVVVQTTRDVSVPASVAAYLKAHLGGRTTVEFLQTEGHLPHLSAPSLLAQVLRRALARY
UniProt P50750, sequence (whole entry, looked up): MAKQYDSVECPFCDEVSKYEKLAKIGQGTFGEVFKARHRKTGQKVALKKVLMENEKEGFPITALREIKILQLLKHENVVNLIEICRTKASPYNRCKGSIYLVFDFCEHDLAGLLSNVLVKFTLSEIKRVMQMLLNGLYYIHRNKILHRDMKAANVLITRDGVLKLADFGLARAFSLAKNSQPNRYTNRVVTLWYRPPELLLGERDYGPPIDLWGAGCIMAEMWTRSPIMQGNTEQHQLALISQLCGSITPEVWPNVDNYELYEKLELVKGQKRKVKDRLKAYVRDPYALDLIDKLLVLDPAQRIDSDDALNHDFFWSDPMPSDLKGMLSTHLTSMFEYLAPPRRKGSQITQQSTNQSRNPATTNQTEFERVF
UniProt P21396, sequence (whole entry, looked up): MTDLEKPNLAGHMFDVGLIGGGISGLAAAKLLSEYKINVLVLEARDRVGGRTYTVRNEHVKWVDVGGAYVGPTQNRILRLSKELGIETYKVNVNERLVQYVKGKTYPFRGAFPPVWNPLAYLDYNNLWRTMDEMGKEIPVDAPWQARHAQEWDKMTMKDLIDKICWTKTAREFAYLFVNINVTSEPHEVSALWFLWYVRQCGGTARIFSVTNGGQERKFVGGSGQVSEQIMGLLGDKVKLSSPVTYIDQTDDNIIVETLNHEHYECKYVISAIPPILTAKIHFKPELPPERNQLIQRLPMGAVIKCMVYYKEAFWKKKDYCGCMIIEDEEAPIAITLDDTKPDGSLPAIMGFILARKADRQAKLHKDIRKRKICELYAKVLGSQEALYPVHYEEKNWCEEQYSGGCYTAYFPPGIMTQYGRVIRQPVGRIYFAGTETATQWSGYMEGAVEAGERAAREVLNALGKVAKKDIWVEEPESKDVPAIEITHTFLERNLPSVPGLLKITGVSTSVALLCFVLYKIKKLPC
UniProt Q6L545, sequence (whole entry, looked up): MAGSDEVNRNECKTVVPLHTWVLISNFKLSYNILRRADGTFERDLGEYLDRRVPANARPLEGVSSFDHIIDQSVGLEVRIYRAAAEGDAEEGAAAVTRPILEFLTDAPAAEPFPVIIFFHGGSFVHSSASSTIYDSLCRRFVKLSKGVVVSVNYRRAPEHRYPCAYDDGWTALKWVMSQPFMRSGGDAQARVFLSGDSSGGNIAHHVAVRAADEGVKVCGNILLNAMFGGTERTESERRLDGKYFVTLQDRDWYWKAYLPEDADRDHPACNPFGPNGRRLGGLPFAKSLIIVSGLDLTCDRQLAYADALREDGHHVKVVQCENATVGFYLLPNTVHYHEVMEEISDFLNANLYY
UniProt P06241, sequence (whole entry, looked up): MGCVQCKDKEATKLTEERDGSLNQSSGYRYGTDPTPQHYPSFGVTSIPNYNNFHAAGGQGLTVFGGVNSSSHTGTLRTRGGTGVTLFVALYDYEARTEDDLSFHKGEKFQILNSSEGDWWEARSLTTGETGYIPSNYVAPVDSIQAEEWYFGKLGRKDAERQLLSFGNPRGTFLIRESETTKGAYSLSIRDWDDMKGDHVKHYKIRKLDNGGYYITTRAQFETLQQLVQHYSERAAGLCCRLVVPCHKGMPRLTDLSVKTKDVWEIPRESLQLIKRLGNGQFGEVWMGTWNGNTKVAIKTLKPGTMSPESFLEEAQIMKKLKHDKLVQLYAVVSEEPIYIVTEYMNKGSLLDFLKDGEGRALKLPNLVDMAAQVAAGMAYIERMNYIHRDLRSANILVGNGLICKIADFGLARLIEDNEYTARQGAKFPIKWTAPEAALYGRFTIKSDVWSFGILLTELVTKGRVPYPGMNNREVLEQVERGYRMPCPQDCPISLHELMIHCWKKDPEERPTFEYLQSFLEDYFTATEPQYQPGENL
UniProt P16885, sequence (whole entry, looked up): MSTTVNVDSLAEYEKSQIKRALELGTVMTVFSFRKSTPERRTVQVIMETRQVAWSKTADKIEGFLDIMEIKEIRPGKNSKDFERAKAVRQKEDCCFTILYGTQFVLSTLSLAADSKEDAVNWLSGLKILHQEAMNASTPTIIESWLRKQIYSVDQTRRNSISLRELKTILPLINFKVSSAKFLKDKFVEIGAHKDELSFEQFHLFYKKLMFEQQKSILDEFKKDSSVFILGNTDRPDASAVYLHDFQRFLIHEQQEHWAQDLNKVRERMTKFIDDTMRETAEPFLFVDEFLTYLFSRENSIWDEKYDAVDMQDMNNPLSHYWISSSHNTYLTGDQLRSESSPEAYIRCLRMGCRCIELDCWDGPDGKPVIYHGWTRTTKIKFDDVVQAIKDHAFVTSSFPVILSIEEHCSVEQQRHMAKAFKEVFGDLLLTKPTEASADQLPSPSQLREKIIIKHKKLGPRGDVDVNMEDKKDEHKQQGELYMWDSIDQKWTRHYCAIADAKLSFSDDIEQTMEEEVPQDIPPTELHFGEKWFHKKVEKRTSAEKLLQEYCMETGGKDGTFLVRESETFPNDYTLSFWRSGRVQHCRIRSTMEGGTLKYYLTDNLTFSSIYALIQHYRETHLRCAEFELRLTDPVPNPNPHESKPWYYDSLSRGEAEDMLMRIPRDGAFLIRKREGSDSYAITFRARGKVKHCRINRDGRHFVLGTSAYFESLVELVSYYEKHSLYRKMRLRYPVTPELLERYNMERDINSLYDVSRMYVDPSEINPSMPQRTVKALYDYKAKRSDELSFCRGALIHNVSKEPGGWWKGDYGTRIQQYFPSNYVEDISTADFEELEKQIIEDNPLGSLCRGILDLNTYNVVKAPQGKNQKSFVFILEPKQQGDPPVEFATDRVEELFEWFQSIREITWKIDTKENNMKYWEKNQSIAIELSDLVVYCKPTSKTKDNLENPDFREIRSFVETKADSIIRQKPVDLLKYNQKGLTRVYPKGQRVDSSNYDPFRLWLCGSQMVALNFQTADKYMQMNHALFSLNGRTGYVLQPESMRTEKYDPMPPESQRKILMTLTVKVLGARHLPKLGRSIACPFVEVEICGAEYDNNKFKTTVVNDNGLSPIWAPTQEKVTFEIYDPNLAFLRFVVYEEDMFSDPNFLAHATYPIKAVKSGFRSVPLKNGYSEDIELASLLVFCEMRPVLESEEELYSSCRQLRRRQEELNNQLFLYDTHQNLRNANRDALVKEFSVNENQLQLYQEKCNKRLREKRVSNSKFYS
UniProt P50552, sequence (whole entry, looked up): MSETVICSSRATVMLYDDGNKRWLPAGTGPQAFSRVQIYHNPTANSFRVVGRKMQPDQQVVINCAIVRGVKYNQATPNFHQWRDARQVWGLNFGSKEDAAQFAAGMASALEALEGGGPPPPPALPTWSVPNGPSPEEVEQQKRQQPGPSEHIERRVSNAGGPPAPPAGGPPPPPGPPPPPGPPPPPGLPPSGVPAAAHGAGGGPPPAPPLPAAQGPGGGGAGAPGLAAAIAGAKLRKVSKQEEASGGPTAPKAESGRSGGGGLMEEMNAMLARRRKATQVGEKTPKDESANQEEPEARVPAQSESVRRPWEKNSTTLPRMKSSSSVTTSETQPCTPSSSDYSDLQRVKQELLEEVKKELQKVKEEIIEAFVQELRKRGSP
UniProt O75469, sequence (whole entry, unmodified, looked up): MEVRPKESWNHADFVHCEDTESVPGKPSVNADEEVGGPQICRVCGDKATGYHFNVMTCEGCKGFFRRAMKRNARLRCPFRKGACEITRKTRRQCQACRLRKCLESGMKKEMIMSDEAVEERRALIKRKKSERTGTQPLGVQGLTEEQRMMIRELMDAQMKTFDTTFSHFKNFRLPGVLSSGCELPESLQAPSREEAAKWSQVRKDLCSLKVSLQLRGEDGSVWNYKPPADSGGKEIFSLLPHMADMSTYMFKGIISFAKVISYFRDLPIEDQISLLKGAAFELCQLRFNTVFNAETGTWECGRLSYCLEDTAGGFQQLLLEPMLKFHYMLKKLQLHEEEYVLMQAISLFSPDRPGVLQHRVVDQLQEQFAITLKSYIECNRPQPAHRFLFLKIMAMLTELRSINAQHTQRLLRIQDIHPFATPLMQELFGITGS

Structure (SMILES) = Cn1ncc2cc(-c3cncc(Cl)c3N3CCC4(CCNC4=O)CC3)ccc21; target = CDK9 (Homo sapiens, UniProt P50750); assay = cell-free assay; conditions = lysate; Kd = 7.39 µM
Structure (SMILES) = COc1ccc(OC)c(-n2nnc(C(=O)Nc3cc(OCCOCCOCCOCCNC(=O)CCc4ccc5n4[B-](F)(F)[N+]4=C(C)C=C(C)C4=C5)cc(C(C)(C)C)c3)c2C)c1; target = Nuclear receptor subfamily 1 group I member 2, ligand-binding domain (NR1I2, Homo sapiens, UniProt O75469, L411W); assay = binding; conditions = PXR LBD L411W; Kd = 0.047 ± 0.0006 µM
Structure (SMILES) = NCCCC[C@H](NC(=O)[C@H](C/C=C\C[C@H](NC(=O)[C@@H]1CCCN1)C(=O)N[C@@H](CCCCN)C(=O)NCCCN)NC(=O)[C@@H]1CCCN1)C(=O)NCCCN; target = (CCUG)10 RNA; assay = SPR; Kd = 22.6 µM
Structure (SMILES) = CC[C@H](C)[C@H](NC(=O)[C@H](CCCCN)NC(=O)[C@H](CC(N)=O)NC(=O)CNC(=O)[C@@H](NC(=O)[C@H](C)NC(=O)[C@H](CCCNC(=N)N)NC(=O)[C@H](CC(C)C)NC(=O)[C@H](CCCCN)NC(=O)[C@H](CCCCN)NC(=O)[C@H](CCCCN)NC(=O)[C@H](C)NC(=O)[C@H](CCCCN)NC(=O)[C@@H]1CSSC[C@H](NC(=O)[C@H](CCCNC(=N)N)NC(=O)CN)C(=O)N[C@@H](CC(N)=O)C(=O)N[C@@H](CC(C)C)C(=O)N[C@@H](CC(C)C)C(=O)N1)C(C)C)C(=O)N[C@@H](CCCCN)C(=O)N[C@@H](CCC(=O)O)C(=O)N[C@H](C(=O)N[C@@H](CCCCN)C(=O)N[C@@H](CC(N)=O)C(=O)N[C@H](C(=O)N[C@H](C(=O)N[C@@H](Cc1ccccc1)C(=O)N[C@@H](CC(N)=O)C(=O)N[C@@H](CCCNC(=N)N)C(=O)O)C(C)C)C(C)C)[C@@H](C)CC; target = lipopolysaccharide; assay = binding, isothermal titration calorimetry; test system = PBS; conditions = pH 7.2, 25 °C; Kd = 11.9 ± 1.08 µM
Structure (SMILES) = CCc1nc2cc3ccccc3cc2cc1C(=O)N1CCC[C@H]1C(=O)N[C@@H](C/C=C\C[C@H](NC(=O)[C@@H]1CCCN1C(=O)c1cc2cc3ccccc3cc2nc1CC)C(=O)N[C@@H](CCCCN)C(=O)NCCCN)C(=O)N[C@@H](CCCCN)C(=O)NCCCN; target = (CCUG)10 RNA; assay = SPR; Kd = 0.038 µM
Structure (SMILES) = CCCCCNC(=O)N1N=C(c2ccc(NC(=O)Nc3ccc(Cl)cc3)cc2)CC1c1ccc(Cl)cc1 (centres unmarked); target = AGER; assay = binding; Kd = 13 ± 3.2 µM
Structure (SMILES) = CCC1C=CC2CCN(C(=O)C3CCC4C=CC5(CCCN5C(=O)C(Cc5ccccc5Cl)NC(C)=O)C(=O)N43)C2C(=O)N1CC(=O)OC (centres unmarked); target = Tyrosine-protein kinase Fyn, SH3 domain (FYN, Homo sapiens, UniProt P06241); assay = binding; Kd = 2400 µM
Structure (SMILES) = CCCC[C@@H]1NC(=O)[C@H](Cc2ccc(O)cc2)NC(=O)[C@@H]2CCCN2C(=O)[C@H](CC(=O)O)NC(=O)[C@H](C)NC(=O)[C@H](Cc2ccccc2)NC(=O)[C@@H]2CSCCC(=O)N3CN(CN(C3)C(=O)CCSC[C@@H](C(=O)N[C@@H](C)C(N)=O)NC1=O)C(=O)CCSC[C@H](NC(C)=O)C(=O)N[C@@H](CC(C)(C)C)C(=O)N1CCC[C@H]1C(=O)N[C@@H](CCC(=O)O)C(=O)N[C@H](CCCCNC(=O)CCc1cn(CCOCCOCCOCCN(CCOCCOCCOCCC(=O)N[C@H]3CSCCC(=O)N4CN5CN(C4)C(=O)CCSC[C@H](NC(=O)[C@@H](CC(=O)O)NC(=O)[C@H](Cc4cccc6ccccc46)NC(=O)[C@@H]4CCCN4C3=O)C(=O)N[C@@H](CCSC)C(=O)N[C@@H](CCCCNC(=N)N)C(=O)N[C@@H](CC(=O)O)C(=O)N[C@@H](Cc3c[nH]c4ccccc34)C(=O)N[C@@H](CO)C(=O)N[C@@H]([C@@H](C)O)C(=O)N3CCC[C@H]3C(=O)N3C[C@H](O)C[C@H]3C(=O)N[C@@H](Cc3c[nH]c4ccccc34)C(=O)N[C@H](C(N)=O)CSCCC5=O)CCOCCOCCOCCn3cc(CCC(=O)NCCCC[C@H]4NC(=O)[C@H](CCC(=O)O)NC(=O)[C@@H]5CCCN5C(=O)[C@H](CC(C)(C)C)NC(=O)[C@@H](NC(C)=O)CSCCC(=O)N5CN6CN(C5)C(=O)CCSC[C@H](NC(=O)[C@H](Cc5ccc(O)cc5)NC(=O)[C@@H]5CCCN5C4=O)C(=O)N[C@@H](Cc4ccccc4)C(=O)N[C@@H](C)C(=O)N[C@@H](CC(=O)O)C(=O)N4CCC[C@H]4C(=O)N[C@@H](Cc4ccc(O)cc4)C(=O)N[C@@H](CCCC)C(=O)N[C@H](C(=O)N[C@@H](C)C(N)=O)CSCCC6=O)nn3)nn1)C(=O)N1CCC[C@H]1C(=O)N[C@@H](Cc1ccc(O)cc1)C(=O)N2; target = Cell adhesion molecule 3 (CADM3, Homo sapiens, UniProt Q8N126); assay = SPR; Kd = > 0.2 µM
Structure (SMILES) = O=C(Nc1ccc(Cl)cc1)Nc1ccc(C2CC(c3ccc(Cl)cc3)=NN2)cc1 (centres unmarked); target = AGER; assay = binding; Kd = 59.3 ± 7.6 µM
Structure (SMILES) = CN(C)c1ccc(/C=C/c2cc(/C=C3\Sc4ccccc4N3CCCN3CCCC3)c3ccccc3[n+]2C)cc1; target = Ds26 DNA; assay = isothermal titration calorimetry; conditions = pH 7.4, 25 °C, 2% DMSO; Kd = 24.6 µM
Structure (SMILES) = CCc1nc2cc3ccccc3cc2cc1C(=O)N1CCC[C@H]1C(=O)N[C@@H](CCC/C=C/CCC[C@H](NC(=O)[C@@H]1CCCN1C(=O)c1cc2cc3ccccc3cc2nc1CC)C(=O)N[C@@H](CCCCN)C(=O)NCCCN)C(=O)N[C@@H](CCCCN)C(=O)NCCCN; target = (CCUG)10 RNA; assay = SPR; Kd = 0.172 µM
Structure (SMILES) = Nc1ncnc2c1ncn2[C@@H]1O[C@H](COP(=O)(O)OP(=O)(O)OP(=O)(O)O)[C@@H](O)[C@H]1O; target = PLCG2 (Homo sapiens, UniProt P16885); assay = binding, surface plasmon resonance; conditions = 25 °C, immobilised residues 1-1195; Kd = 8 µM
Structure (SMILES) = CC(=O)NC(Cc1ccccc1Cl)C(=O)N1CCCC12C=CC1CCC(C(=O)N3CCC4C=CC5C(C)CC(C(=O)O)N5C(=O)C43)N1C2=O (centres unmarked); target = VASP (Homo sapiens, UniProt P50552); assay = binding, fluorescence; Kd = 0.28 µM
Structure (SMILES) = CC[C@H](C)[C@@H]1NC(=O)[C@H](CC(=O)N[C@@H]2O[C@H](CO)[C@@H](O[C@@H]3O[C@H](CO)[C@@H](O[C@@H]4O[C@H](CO[C@H]5O[C@H](CO[C@H]6O[C@H](CO)[C@@H](O)[C@H](O)[C@@H]6O)[C@@H](O)[C@H](O[C@H]6O[C@H](CO)[C@@H](O)[C@H](O)[C@@H]6O)[C@@H]5O)[C@@H](O)[C@H](O[C@H]5O[C@H](CO)[C@@H](O)[C@H](O)[C@@H]5O)[C@@H]4O)[C@H](O)[C@H]3NC(C)=O)[C@H](O)[C@H]2NC(C)=O)NC(=O)[C@H](Cc2ccccc2)NC(=O)[C@H](CO)NC(=O)[C@H](CO)NC(=O)[C@H](CC(=O)N[C@@H]2O[C@H](CO)[C@@H](O[C@@H]3O[C@H](CO)[C@@H](O[C@@H]4O[C@H](CO[C@H]5O[C@H](CO)[C@@H](O)[C@H](O)[C@@H]5O[C@@H]5O[C@H](CO)[C@@H](O[C@@H]6O[C@H](CO[C@]7(C(=O)O)C[C@H](O)[C@@H](NC(C)=O)[C@H]([C@H](O)[C@H](O)CO)O7)[C@H](O)[C@H](O)[C@H]6O)[C@H](O)[C@H]5NC(C)=O)[C@@H](O)[C@H](O[C@H]5O[C@H](CO)[C@@H](O)[C@H](O)[C@@H]5O[C@@H]5O[C@H](CO)[C@@H](O[C@@H]6O[C@H](CO[C@]7(C(=O)O)C[C@H](O)[C@@H](NC(C)=O)[C@H]([C@H](O)[C@H](O)CO)O7)[C@H](O)[C@H](O)[C@H]6O)[C@H](O)[C@H]5NC(C)=O)[C@@H]4O)[C@H](O)[C@H]3NC(C)=O)[C@H](O)[C@H]2NC(C)=O)NC(=O)[C@@H](NC(=O)[C@@H](NC(=O)CCCCCNC(=O)CCCC[C@@H]2SC[C@@H]3NC(=O)N[C@@H]32)C(C)C)CSSC[C@@H](C(=O)N[C@@H](Cc2ccc(O)cc2)C(N)=O)NC(=O)[C@H](CC(C)C)NC(=O)[C@H](C)NC(=O)[C@H](Cc2ccc(O)cc2)NC(=O)[C@H](C)NC(=O)[C@H](CCCCN)NC(=O)[C@H](CCC(N)=O)NC(=O)[C@H](CCCCN)NC(=O)[C@H](CCCCN)NC(=O)[C@H](CC(=O)O)NC(=O)[C@H](CCCNC(=N)N)NC(=O)[C@H](CC(C)C)NC(=O)[C@H](CCC(=O)O)NC(=O)[C@H]([C@@H](C)O)NC(=O)[C@H]([C@@H](C)O)NC1=O; target = PG16 Fab (human); assay = binding, SPR; conditions = 25 °C, immobilized V1V2 glycopeptide; Kd = 130 ± 2 µM
Structure (SMILES) = NCc1ccc(Cl)cc1; target = Maoa (Rattus norvegicus, UniProt P21396); conditions = pH 7.5, deprotonated amine, pKa-corrected; Kd = 0.75 µM
Structure (SMILES) = C=C1C[C@]23C[C@H]1CC[C@H]2[C@@]12CC[C@H](O)[C@@](C)(C(=O)O1)[C@H]2[C@@H]3C(=O)O; target = GID1 (Oryza sativa, UniProt Q6L545); Kd = 0.35 µM
Structure (SMILES) = O=C(Nc1ccc(Cl)cc1)Nc1ccc(C2CC(c3ccc(Cl)cc3)=NN2C(=O)Nc2ccc(Cl)cc2)cc1 (centres unmarked); target = AGER; assay = binding; Kd = 10.5 ± 1.7 µM
Structure (SMILES) = Cc1cccc2c1N(C(=O)n1ccnn1)CC2; target = D14 (Oryza sativa, UniProt Q10QA5); assay = binding, ITC; Kd = 31.5 µM and 25.8 µM and 14 µM
Structure (SMILES) = CCc1nc2cc3ccccc3cc2cc1C(=O)N[C@@H](CCCCN)C(=O)N[C@@H](C/C=C/C[C@H](NC(=O)[C@H](CCCCN)NC(=O)c1cc2cc3ccccc3cc2nc1CC)C(=O)N1CCC[C@H]1C(=O)NCCCN)C(=O)N1CCC[C@H]1C(=O)NCCCN; target = (CCUG)10 RNA; assay = SPR; Kd = 0.152 µM
Structure (SMILES) = Cc1c[nH]c2nccc(-c3ccc(C(=O)N[C@@H]4c5c(F)cc(C(F)F)cc5C[C@@H]4O)cn3)c12; target = PAK4 (Homo sapiens, UniProt O96013); assay = binding, competition with immobilised ligand; Kd = 0.42 µM

Excerpt of the above:
Structure (SMILES) = O=C(Nc1ccc(Cl)cc1)Nc1ccc(C2CC(c3ccc(Cl)cc3)=NN2)cc1 (centres unmarked); target = AGER; assay = binding; Kd = 59.3 ± 7.6 µM
Structure (SMILES) = CN(C)c1ccc(/C=C/c2cc(/C=C3\Sc4ccccc4N3CCCN3CCCC3)c3ccccc3[n+]2C)cc1; target = Ds26 DNA; assay = isothermal titration calorimetry; conditions = pH 7.4, 25 °C, 2% DMSO; Kd = 24.6 µM
